Measured values pooled from the literature.
Lines come from different studies, so protocols differ.
JAK3: Tyrosine-protein kinase JAK3 (JAK3, Homo sapiens, UniProt P52333)
JAK3 JH1: Tyrosine-protein kinase JAK3, JH1 (JAK3, Homo sapiens, UniProt P52333)

Compound = C=CC(=O)Nc1cccc(-c2cnc3[nH]cc(C(=O)NC(C)(C)C)c3n2)c1; target = JAK3; assay = enzyme activity, inhibitor; setting = 0.1 µM; measurement = inhibition; value = 99%
Compound = COc1cc(Nc2nccc(-c3cnn4nc(OC)ccc34)n2)cc(C(F)(F)F)c1; target = JAK3 JH1; assay = binding, competition with immobilised ligand; setting = 1 µM; measurement = remaining binding; value = 87%
Compound = COc1cc(-n2cc3cc(F)cc(C(N)=O)c3n2)cc(Cl)c1C1CC(O)(CCO)Cc2ccccc21 (stereo not drawn); target = JAK3; assay = enzyme activity, inhibitor; setting = 10 µM; measurement = inhibition; value = 0.83%
Compound = C[C@H](c1ccccc1)N1C(=O)C2=Nc3cccc(Cl)c3CN2C1=S; target = JAK3; assay = enzyme activity, inhibitor; setting = 1.5 µM; measurement = inhibition; value = ≥ 85%
Compound = CN1CCN(Cc2ccc(-c3ccc(CO[C@H]4CCC[C@@H]4NC(=O)c4cc(-c5cnn(C)c5)cnc4N)cc3)cc2)CC1; target = JAK3; assay = enzyme activity, inhibitor; setting = 0.1 µM; measurement = inhibition; value = -10%
Compound = C=CC(=O)N1CCCC(n2c(=O)c3ncccc3n(Cc3ccc(Oc4ccccc4)cc3)c2=O)C1 (stereo not drawn); target = JAK3 JH1; assay = cell-free assay, competition with immobilised ligand; setting = 1 µM; measurement = remaining binding; value = 64%
Compound = C=CC(=O)N1Cc2nc(-c3cc(-c4cc(Cl)cnc4Cl)c(F)cc3F)n(-c3ccncn3)c2C1; target = JAK3; assay = cell-free assay, inhibitor; setting = 1 µM; measurement = inhibition; value = > 50%
Compound = NC(=O)[C@@H](O)C[C@H]1CCc2sc3ncnc(O[C@H]4CC[C@H](N5CCOCC5)CC4)c3c21; target = JAK3; assay = enzyme activity, inhibitor; setting = 10 µM; measurement = inhibition; value = 8%
Compound = COc1ccc(NC(=O)Nc2ccc3c(c2)C(=O)N(C(C)CO)CC(C)C(CN(C)Cc2ccc4c(c2)OCO4)O3)cc1 (stereo not drawn); target = JAK3; assay = kinase activity, KinaseProfiler; setting = 0.03 µM, species human; how to read = relative to: control; measurement = remaining activity; value = 95%
Compound = COc1ccc(C(=O)/C=C/c2ccccc2-c2c[nH]c3ccc(C#N)cc23)c(O)c1; target = JAK3; assay = enzyme activity, inhibitor; setting = 20 µM; measurement = inhibition; value = 9%
Compound = COc1c(OCCCN2CCOCC2)ccc2c1N=C(NC(=O)c1cnc(N)nc1)N1CCN=C21; target = JAK3; assay = kinase activity, inhibitor; setting = 1 µM; how to read = relative to: untreated control; measurement = remaining activity; value = 112%
Compound = Cc1ccc(-c2c(/C=C(\C#N)C(=O)NC(C)C)n(CCCO)c3ncnc(N)c23)cc1; target = JAK3 JH1; assay = cell-free assay, competition with immobilised ligand; setting = 1 µM; measurement = remaining binding; value = 97%
Compound = CNS(=O)(=O)Nc1nccc(Cc2c(C)c3ccc(Oc4ncccc4F)cc3oc2=O)c1F; target = JAK3 JH1; assay = binding, competition with immobilised ligand; setting = 10 µM; measurement = remaining binding; value = 100%
Compound = O=C(Cc1ccc(OCc2ccccc2)cc1)NC1(C(=O)O)CCN(C(=O)c2ccc(-c3cccc(Cl)c3)cc2)CC1; target = JAK3; assay = enzyme activity, inhibitor; setting = 10 µM; measurement = activity vs control; value = 106%
Compound = Cc1nc2c(F)cc(-c3nc(Nc4ccc(CNC(=O)CCCCCCC(=O)NO)cc4)ncc3F)cc2n1C(C)C; target = JAK3; assay = enzyme activity, inhibitor; setting = 1 µM; measurement = inhibition; value = 97%
Compound = C[C@H]1CN(C(=O)c2cn(-c3ccnc(N)n3)c3cc(C#CC4(O)CCCCC4)ccc23)CCN1; target = JAK3; assay = enzyme activity, inhibitor, FRET; setting = 1 µM; measurement = inhibition; value = -2%
Compound = CNC(=O)C1CCN(c2cc(C)c(F)cc2NC(=O)c2ccc(-c3cc(O)ccc3C)c(C)c2)CC1; target = JAK3 JH1; assay = binding, competition with immobilised ligand; setting = 1 µM; measurement = remaining binding; value = 100%
Compound = CN1CCN(Cc2ccc(NC(=O)c3cccc(C#Cc4cnc(N)c5ncccc45)c3)cc2C(F)(F)F)CC1; target = JAK3 JH1; assay = cell-free assay, competition with immobilised ligand; setting = 0.5 µM; measurement = remaining binding; value = 8.3%
Compound = Cc1cccc(O[C@H]2CCC[C@@H](C(C)CNCc3ccncc3)C2)c1 (relative stereo); target = JAK3; assay = enzyme activity, inhibitor; setting = 1 µM; measurement = inhibition; value = 2%
Compound = CCn1cc(C(=O)O)c(=O)c2c(N)c(F)c(NC3CCCCC3)cc21; target = JAK3; assay = kinase activity; setting = 0.1 µM, together with: ATP at Km; measurement = inhibition; value = -17%
Compound = CNC1C[S+]2CC[S+]3CC[S+](C1)[Ru-4]321([N]=C=S)[n]2c3ccc(OC)cc3c3c4c(c5cc(F)c[n+]1c5c32)C(=O)NC4=O (stereo not drawn); target = JAK3; assay = KinomeScan; setting = 0.1 µM; how to read = relative to: untreated; measurement = remaining binding; value = 70%

A few entries again:
Compound = Cc1ccc(-c2c(/C=C(\C#N)C(=O)NC(C)C)n(CCCO)c3ncnc(N)c23)cc1; target = JAK3 JH1; assay = cell-free assay, competition with immobilised ligand; setting = 1 µM; measurement = remaining binding; value = 97%
Compound = CNS(=O)(=O)Nc1nccc(Cc2c(C)c3ccc(Oc4ncccc4F)cc3oc2=O)c1F; target = JAK3 JH1; assay = binding, competition with immobilised ligand; setting = 10 µM; measurement = remaining binding; value = 100%
Compound = O=C(Cc1ccc(OCc2ccccc2)cc1)NC1(C(=O)O)CCN(C(=O)c2ccc(-c3cccc(Cl)c3)cc2)CC1; target = JAK3; assay = enzyme activity, inhibitor; setting = 10 µM; measurement = activity vs control; value = 106%
